{"data": "Results of several laboratories", "note": "Each line is one published result; not all experiments were run side by side. ± marks the error that the study gave."}
{"SMILES": "CCCCCCCCCCCCCCCC(=O)NCCOCCOCCOCCOCCOCCOCCOCCOCCC(=O)NCCCC[C@H](NC(=O)CNC(=O)[C@@H]1CSSC[C@H](N)C(=O)N[C@@H](Cc2ccc(O)cc2)C(=O)N[C@@H]([C@@H](C)CC)C(=O)N[C@@H](CCC(N)=O)C(=O)N[C@@H](CC(N)=O)C(=O)N1)C(=O)NCC(N)=O", "system": "male C57BL/6J mouse, plasma", "conditions": "subcutaneous, dose not given", "half-life": "3.2 h"}
{"SMILES": "CN(C(=O)c1ccn2ncc(-c3ccc(C(N)=O)cc3)c2c1)c1ccc(C#N)cn1", "system": "CD-1 mouse, Wistar rat, rhesus monkey, plasma", "conditions": "oral, suspension, all three species", "half-life": "2 to 4 h"}
{"SMILES": "NC(=O)c1ccc(C(=O)NOCc2ccc(Sc3cccc(Cl)c3)c(C(F)(F)F)c2)cc1", "system": "male ICR mouse, plasma", "conditions": "intraperitoneal, 30 mg/kg", "half-life": "0.61 h"}
{"SMILES": "CCS(=O)(=O)c1ccccc1C(=O)N1CCN(c2nc3ccc(F)cc3s2)C[C@@H]1C", "system": "mouse", "conditions": "intravenous, 3 mg/kg", "half-life": "1.23 ± 0.0617 h"}
{"SMILES": "Cc1cccc(O[C@H]2CCC[C@@H](C(C)CNCc3ccncc3)C2)c1 (relative stereo)", "system": "C57BL/6 mouse female, brain", "conditions": "oral, 25 mg/kg", "half-life": "6.77 h"}
{"SMILES": "CCc1nc(N)nc(N)c1C#C[C@H](C)c1cc(-c2cc(C)nc(C)c2)ccc1Cl", "system": "mouse, plasma", "conditions": "oral, 16 mg/kg", "half-life": "4.5 h"}
{"SMILES": "CCCCCCCCCCCCCCCC(=O)OCC(CSC[C@H](N)C(=O)NCC(=O)N[C@@H](CC(=O)O)C(=O)N1CCC[C@H]1C(=O)N[C@@H](CCCCN)C(=O)N[C@@H](Cc1c[nH]cn1)C(=O)N1CCC[C@H]1C(=O)N[C@@H](CCCCN)C(=O)N[C@@H](CO)C(=O)N[C@@H](Cc1ccccc1)C(=O)O)OC(=O)CCCCCCCCCCCCCCC (stereo partly shown)", "test": "LC-MS/MS", "system": "naive mouse, plasma", "conditions": "subcutaneous, 0.4 to 4.0 mg/kg", "half-life": "~3 h"}
{"SMILES": "Cc1cc(NC(=O)[C@H](O)c2cc(F)cc(F)c2)ccc1-c1cnc(N)c(C(=O)NC(C)C)c1", "system": "athymic nude mouse, female, plasma", "conditions": "oral, 3 to 100 mg/kg", "half-life": "2.22 h"}
{"SMILES": "Cc1c(C(=O)Nc2ccn(C)n2)ncn1Cc1cccc(C(F)(F)F)c1", "system": "C57BL/6 mouse, plasma", "conditions": "oral, 10 mg/kg, single dose, mean", "half-life": "1.4 h"}
{"SMILES": "Cc1ccc2oc(-c3c4c(N)n[nH]c(=O)c4nn3-c3ccc(NC(=O)/C=C/CN4CCOCC4)cc3)c(C)c2c1", "system": "BALB/c nude mouse, whole blood", "conditions": "1 µM, 37 °C", "half-life": "26 h"}
{"SMILES": "COc1ccc(C(=O)c2c(C(=O)NCCCN(C)C)oc3ccc(Cl)cc3c2=O)cc1OC", "system": "C57BL/6 mouse, male, brain", "conditions": "intraperitoneal and oral, 5 mg/kg", "half-life": "6.6 to 11 h"}
{"SMILES": "COc1cccc2c1C(=O)c1c(O)c3c(c(O)c1C2=O)CC(O)(C(=O)CO)CC3OC1CC(NC(=O)C[C@H](N)C(=O)O)C(O)C(C)O1 (stereo partly shown)", "system": "healthy mouse, plasma", "conditions": "intravenous, 5 mg/kg", "half-life": "0.819 h"}
{"SMILES": "O=C(Cc1ccc(-c2ccc(OCCN3CCOCC3)cc2)cn1)NCc1ccc(F)cc1", "system": "ICR mouse", "conditions": "intravenous, 2 mg/kg", "half-life": "1.69 ± 1.09 h"}
{"SMILES": "Cc1cc2c(c(=O)o1)C=C1CCC(C(C)CNCc3ccc(O)cc3)CC1O2 (stereo not shown)", "system": "mouse, plasma", "conditions": "oral, dose not given", "half-life": "2.67 h"}
{"SMILES": "Clc1ccc(C(c2c[nH]c3ccccc23)c2c[nH]c3ccccc23)cc1", "system": "mouse C57BL/6 male, plasma", "conditions": "oral, 25 mg/kg", "half-life": "4.15 ± 0.383 h"}
{"SMILES": "COc1ccc(-c2ccn(CC[C@](C)(C(=O)NO)S(C)(=O)=O)c(=O)c2)c(F)c1", "system": "CF-1 mouse, female", "conditions": "subcutaneous, 18.75 mg/kg", "half-life": "0.6 ± 0.03 h"}
{"note": "Some of these lines once more:"}
{"SMILES": "CCCCCCCCCCCCCCCC(=O)NCCOCCOCCOCCOCCOCCOCCOCCOCCC(=O)NCCCC[C@H](NC(=O)CNC(=O)[C@@H]1CSSC[C@H](N)C(=O)N[C@@H](Cc2ccc(O)cc2)C(=O)N[C@@H]([C@@H](C)CC)C(=O)N[C@@H](CCC(N)=O)C(=O)N[C@@H](CC(N)=O)C(=O)N1)C(=O)NCC(N)=O", "system": "male C57BL/6J mouse, plasma", "conditions": "subcutaneous, dose not given", "half-life": "3.2 h"}
